Results collected from several papers.
Every numbered part comes from another study and shows a few of its results, in no order. Changes are numbered by the printed parent chain.

Block 1 — method: protein-binding microarray; molecule type: double-stranded DNA, one strand shown; sample: in vitro; tested at: 250 nM; setting: 60-bp whole probe; together with: salmon DNA 0.4 mg/ml; baseline: random background probes; reading: higher = stronger binding; measurement: log fluorescence; constant ends, left off below: GCCTAGCAC … GTCTTGATTCGCTTGACGCTGCTG
Target: Interferon regulatory factor 5, full length, phosphomimetic (IRF5, Homo sapiens, UniProt Q13568-2, residues 1-514, K96S/S451D/S453D/S456D/S462D)
Oligonucleotide = GACGGTATCGGTTTCGCGACGTGCTAG; result = 6.97 z-score
Oligonucleotide = TGCTTTGGACCCAGGGCTAAGTGCTAG; result = -0.598 z-score
Oligonucleotide = ATGAAGTTCTTTTTTTCAAGGTGCTAG; result = 0.524 z-score
Oligonucleotide = GATGGACTGGGGACTGGGGACGTGCTA; result = -0.356 z-score
Oligonucleotide = GACGAACTGGGGTGTCGAGACGTGCTA; result = -0.527 z-score
Oligonucleotide = GACGGTATCGGGTTTCGCGACGTGCTA; result = 2.87 z-score
Oligonucleotide = TGAGGTATCGGTATCGGTTAGTGCTAG; result = 8.15 z-score
Oligonucleotide = TTAGATTTCGGGTCTGGATTAGTGCTA; result = 4.15 z-score
Oligonucleotide = TAAGGTATCGGGTTTCGGTTAGTGCTA; result = 8.25 z-score
Oligonucleotide = CTCTCCATGTGTTTAAAGACGTGCTAG; result = -0.0412 z-score

Block 2 — target: CCNB2, cyclin fold, Cln2 fusion (human); method: yeast growth competition, sequencing; sample: yeast; setting: weak parent motif; baseline: not given; reading: higher = stronger binding; measurement: normalised enrichment score
Starting sequence: PKN2 docking peptide (human); VSAVQKLDFSDTM; partner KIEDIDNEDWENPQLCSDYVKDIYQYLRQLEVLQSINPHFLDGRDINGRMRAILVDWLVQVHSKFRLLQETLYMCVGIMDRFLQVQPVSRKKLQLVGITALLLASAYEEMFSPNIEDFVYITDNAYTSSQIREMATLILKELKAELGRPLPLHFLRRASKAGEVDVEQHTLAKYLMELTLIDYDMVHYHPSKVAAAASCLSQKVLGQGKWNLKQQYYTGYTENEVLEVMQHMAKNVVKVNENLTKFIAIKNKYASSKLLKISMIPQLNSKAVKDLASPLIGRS
Change = VSADQKLDFSDTM [V4D]; result = -0.541
Change = VSAVQKLDFSTTM [D11T]; result = -0.309
Change = VSAVQKLMFSDTM [D8M]; result = 0.0665
Change = VSAVQKLDFIDTM [S10I]; result = 0.0998
Change = VSAVQKLDFSGTM [D11G]; result = 0.116

Block 3 — method: protein binding microarray; molecule type: double-stranded DNA, one strand shown; sample: in vitro; tested at: not given; baseline: not given; reading: higher = stronger binding; measurement: E-score
Target: Histone acetyltransferase KAT6A, both winged helices, GST fusion (KAT6A, Homo sapiens, UniProt Q92794, residues 1-181)
Setting: 8-mer, flanks averaged, mean of 2 arrays, mostly near background
Residues (chain): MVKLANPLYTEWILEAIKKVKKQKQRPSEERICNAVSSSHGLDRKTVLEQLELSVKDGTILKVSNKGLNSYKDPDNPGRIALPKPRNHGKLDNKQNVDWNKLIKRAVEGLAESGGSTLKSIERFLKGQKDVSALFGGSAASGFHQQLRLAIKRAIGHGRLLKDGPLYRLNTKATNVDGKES
Oligonucleotide = AAGCTAGT; result = -0.156
Oligonucleotide = CGCAAGCA; result = 0.133
Oligonucleotide = ATCGAGAG; result = -0.11
Oligonucleotide = GCCAATCC; result = 0.000445
Oligonucleotide = AAAACGGG; result = 0.231
Oligonucleotide = CGAATACC; result = -0.0521
Oligonucleotide = AAGTTACA; result = -0.182
Oligonucleotide = AAGCAAAA; result = -0.213

Single results of other studies
Substance = PhoQ, residues 284 288 289 292 302 303 NLSRDF; target = PhoP, residues 12 14 15 18 19 NYFTV (Escherichia coli, UniProt P23836); assay = Sort-seq, item: YFP reporter; test system = E. coli; setting = PhoQ-PhoP variant library, together with: 10 µM Mg2+; scale = baseline: high Mg2+ state, higher = stronger signaling; measurement = fold induction; result = 9.01

Repeated from above (block 2):
Change = VSAVQKLMFSDTM [D8M]; result = 0.0665
Change = VSAVQKLDFIDTM [S10I]; result = 0.0998
Change = VSAVQKLDFSGTM [D11G]; result = 0.116
